Published values from different studies.
Protocols differ between the studies behind these lines. “And” joins repeats or separate records; there may be more than shown. Numbers after ± are the reported error.
RIPK2: Receptor-interacting serine/threonine-protein kinase 2 (RIPK2, Homo sapiens, UniProt O43353)
ABCG2: Broad substrate specificity ATP-binding cassette transporter ABCG2 (ABCG2, Homo sapiens, UniProt Q9UNQ0)
MAPK10: Mitogen-activated protein kinase 10 (MAPK10, Homo sapiens, UniProt P53779)

Compound | target | assay | system | setting | IC50
CC[C@H](C)[C@@H]1NC(=O)[C@H](Cc2c[nH]c3ccccc23)NC(=O)CNC(=O)[C@H](C)NC(=O)c2cc3cc(c2)C(=O)NC[C@H](NC(=O)[C@H](Cc2ccc(O)cc2)NC1=O)C(=O)N[C@@H](Cc1ccccc1)C(=O)N[C@@H](Cc1ccc2ccccc2c1)C(=O)N[C@@H](CCCNC(=N)N)C(=O)N[C@H](CCCNC(=N)N)C(=O)N[C@@H](CCCNC(=N)N)C(=O)N[C@H](C(=O)NCCC(=O)NCCC(=O)N[C@@H](CCCCN)C(N)=O)CNC3=O | NF-kappa-B essential modulator, with IKK-beta (IKBKG, Homo sapiens, UniProt Q9Y6K9) | inhibitor, HTRF |  |  | 2.2 ± 0.1 µM
CCOC(=O)C1=C(C)NC2=C(C(=O)CC(C)(C)C2)C1c1ccc(OCC(=O)NN=Cc2cc(Br)c(O)c(Br)c2)cc1OCC(=O)NN=Cc1cc(Br)c(O)c(Br)c1 (stereo not drawn) | Alpha-glucosidase MAL32 (MAL32, Saccharomyces cerevisiae, UniProt P38158) | inhibitor |  | pH 6.8, 37 °C, with: p-nitrophenyl α-D-glucopyranoside 0.7 mM | 8.89 ± 0.37 µM
C=CCOc1ccc(/C=C2\SC(=S)NC2=O)cc1 | Phosphatidylinositol 4,5-bisphosphate 3-kinase catalytic subunit alpha isoform (PIK3CA, Homo sapiens, UniProt P42336) | enzyme activity, inhibitor, radiometric |  |  | 2.7 µM
N=C(N)NCCC[C@H](NC(=O)[C@H](CC(=O)O)NC(=O)[C@@H]1CSCCC(=O)NCC(=O)N[C@@H](Cc2c[nH]cn2)C(=O)N[C@H](Cc2ccccc2)C(=O)N[C@@H](CCCNC(=N)N)C(=O)N[C@H](Cc2c[nH]c3ccccc23)C(=O)N1)C(=O)N[C@@H](Cc1ccccc1)C(=O)NCC(N)=O | Melanocyte-stimulating hormone receptor (MC1R, Homo sapiens, UniProt Q01726) | ligand displacement, radioligand |  |  | 0.03 µM
N=C(N)NCCC[C@@H]1NC(=O)[C@H](Cc2c[nH]c3ccccc23)NC(=O)[C@H](CCCNC(=N)N)NC(=O)[C@H](Cc2c[nH]c3ccccc23)NC(=O)[C@H](CCCNC(=N)N)NC(=O)[C@H](Cc2c[nH]c3ccccc23)NC(=O)[C@H](CCCNC(=N)N)NC(=O)[C@H](Cc2c[nH]c3ccccc23)NC(=O)[C@H](CCCNC(=N)N)NC(=O)[C@H](Cc2c[nH]c3ccccc23)NC(=O)[C@H](CCCNC(=N)N)NC(=O)[C@H](Cc2c[nH]c3ccccc23)NC(=O)[C@H](CCCNC(=N)N)NC(=O)[C@H](Cc2c[nH]c3ccccc23)NC(=O)[C@H](CCCNC(=N)N)NC(=O)[C@H](Cc2c[nH]c3ccccc23)NC1=O | Serine/threonine-protein kinase B-raf (BRAF, Homo sapiens, UniProt P15056) | enzyme activity, inhibitor |  |  | 0.68 µM
N#Cc1cnc2sc(C(=O)O)cc2c1N1CCc2[nH]nc(C(=O)N[C@@H](CC(=O)NCCOCCN3CCOCC3)c3cccc(Br)c3)c2C1 | Interleukin-1 receptor-like 2 (IL1RL2, Homo sapiens, UniProt Q9HB29) | antagonist, SEAP reporter | HEK-Blue IL-36R | 6 h, with: 0.003 ng/mL IL-36β | > 100 µM
CC1(C)CC(=O)C=C(Sc2nc3cc(Cl)ccc3s2)C1 | Lysine-specific demethylase 4A (KDM4A, Homo sapiens, UniProt O75164) | ligand displacement, FP |  |  | > 200 µM
CC(C)NC(=O)NC1CC=C(c2cc3c(Nc4cc5ncsc5cc4F)ncnc3s2)CC1 (racemic) | RIPK2 | enzyme activity, inhibitor |  |  | 0.011 µM
CCCCCCCCCCCCCCCCCC(=O)Oc1cc(C(=O)O[C@@H]2Cc3c(O)cc(O)cc3O[C@@H]2c2cc(OC(=O)CCCCCCCCCCCCCCCCC)c(O)c(OC(=O)CCCCCCCCCCCCCCCCC)c2)cc(OC(=O)CCCCCCCCCCCCCCCCC)c1O | Genome polyprotein, protease (Hepatitis C virus genotype 1a, UniProt P27958) | enzyme activity, inhibitor, fluorescence |  |  | 0.13 µM
C=CC(=O)N1CCc2ccc(-n3c(=O)ccc4cnc5ccc(-c6cnn(C)c6)cc5c43)cc21 | RIPK2 | enzyme activity, inhibitor |  |  | 5.69 µM
COc1ccccc1C1Sc2ccccc2NC2=C1C(=O)c1ccccc12 (racemic) | MT-CYB, bc1 complex (Plasmodium falciparum, UniProt Q02768) | enzyme activity, inhibitor | purified mitochondrial fractions |  | 1.33 ± 0.366 µM
CC(Oc1cc(OC(C)C(=O)O)c2c(=O)cc(-c3ccccc3)oc2c1)C(=O)O (stereo not drawn) | P2Y purinoceptor 14 (P2RY14, Homo sapiens, UniProt Q15391) | antagonist |  |  | 0.00771 µM and < 0.01 µM
Clc1ccc2[nH]c3c(ccc4c5ccccc5[nH]c43)c2c1 | ABCG2 | Hoechst accumulation, inhibitor | MDCK II transfected with ABCG2 |  | 35 µM
N#Cc1nc2c(nc1C#N)-c1ccc(Cl)cc1C2=O | Ubiquitin carboxyl-terminal hydrolase 7 (USP7, Homo sapiens, UniProt Q93009) |  |  |  | ~6 µM
COc1cncc(-c2cc(F)cc(CNC(=O)c3cc(N4CC[C@@](C#N)(C5CC5)C4=O)cc(C)n3)c2)c1 | Bifunctional glutamate/proline--tRNA ligase (EPRS1, Homo sapiens, UniProt P07814) | enzyme activity, inhibitor, absorbance |  |  | 1.08 µM
CCOc1c(C(C)(C)O)sc2cnc(Nc3ccc(N4CCC(N5CC6(COC6)C5)CC4)cc3OC)nc12 | Calcium/calmodulin-dependent protein kinase type II subunit gamma (CAMK2G, Homo sapiens, UniProt Q13555) | enzyme activity, inhibitor, mobility shift |  |  | 0.051 µM
COc1cc(-c2ccc(/N=N/c3ccc4c(S(=O)(=O)O)cc(S(=O)(=O)O)c(N)c4c3O)c(OC)c2)ccc1/N=N/c1ccc2c(S(=O)(=O)O)cc(S(=O)(=O)O)c(N)c2c1O | Neutrophil elastase (ELANE, Homo sapiens, UniProt P08246) | enzyme activity, inhibitor, absorbance |  | pH 7.4 | 2.1 µM

Compound | target | assay | system | setting | IC50
Cc1nc(NC(=O)N2CCCC2)sc1-c1csc(C(C)(C)C)n1 | Phosphatidylinositol 4,5-bisphosphate 3-kinase catalytic subunit gamma isoform (PIK3CG, Homo sapiens, UniProt P48736) | enzyme activity, inhibitor, TR-FRET |  |  | 4.35 µM
N=C(NCCCCC(N)C(N)=O)NCCCSCC1OC(n2cnc3c(N)ncnc32)C(O)C1O (stereo not drawn) | Histone-lysine N-methyltransferase EHMT2 (EHMT2, Homo sapiens, UniProt Q96KQ7) | enzyme activity, inhibitor, fluorescence |  |  | > 100 µM
CCCn1c(=O)c2[nH]c(-c3ccc(OCC(=O)NCCNC(=O)CCCCCNC(=O)CCCCCNS(=O)(=O)c4cccc5c(N(C)C)cccc45)cc3)nc2n(CCC)c1=O | Adenosine receptor A1 (ADORA1, Homo sapiens, UniProt P30542) | ligand displacement in cells, radioligand |  |  | 0.186 µM
Cc1cc(NC(=O)c2cccc(-n3cc(NC(=O)Nc4ccccc4)cn3)c2)ccn1 | MAPK10 | enzyme activity, inhibitor, TR-FRET |  |  | 0.0347 µM
C=CC(=O)N1CCCCC1C(=O)O (stereo not drawn) | Fosb/Jund, ΔFosB isoform (Mus musculus, UniProt P13346+P15066) | ΔFOSB/JUND DNA binding, fluorescence polarization |  | 15 min, with: TMR-cdk5 oligonucleotide | 71.4 ± 3.1 µM
COc1ccc(OC)c(/C=C/C(=O)c2ccc3c(c2)OCO3)c1 | ABCG2 | transporter efflux, inhibitor, flow cytometry | HEK293 | 30 min | 1.07 µM
COc1ccc(C(=O)/C=C(\O)C(F)(F)C(F)(F)F)c(O)c1 | Formate-nitrite transporter (Plasmodium knowlesi, UniProt A0A679KXN5) | L-lactate transport, inhibitor | yeast | pH 6.8, with: 14C-L-lactate 1 mM | 0.45 ± 0.07 µM
CC(C)C[C@H](NC(=O)[C@H](CC(N)=O)NC(=O)[C@H](CC(C)C)NC(=O)[C@@H](NC(=O)[C@@H](NC(=O)[C@@H]1CCCN1C(=O)[C@H](CCCNC(=N)N)NC(=O)[C@H](CCCCN)NC(=O)[C@@H]1CCCN1)[C@@H](C)O)[C@@H](C)O)C(=O)N[C@@H](Cc1ccccc1)C(N)=O | MAPK10 | enzyme activity, inhibitor, radiometric |  | pH 7.5 | 2.6 µM
CC1OC(Oc2c(-c3ccc(O)cc3)oc3cc(O)cc(O)c3c2=O)C(OC(=O)C=Cc2ccc(O)cc2)C(O)C1OC(=O)C=Cc1ccc(O)cc1 (stereo not drawn) | C-C chemokine receptor type 2 (CCR2, Homo sapiens, UniProt P41597) | ligand displacement in cells, radioligand |  |  | 0.082 µM
CC(C)C[C@@H](N)C(=O)N[C@H](CC(=O)O)C(=O)N[C@@H](C(=O)N[C@H](Cc1ccccc1)C(=O)N[C@H](CC(C)C)C(=O)N[C@H](Cc1ccc(O)cc1)C(=O)N[C@H](CO)C(=O)N[C@H](CCC(=O)O)C(=O)O)C(C)C | Programmed cell death 1 ligand 1, with PD-1 (CD274, Homo sapiens, UniProt Q9NZQ7) | PD-1/PD-L1 binding, inhibitor, flow cytometry | CHO-K1 expressing human PD-1 | with: human PD-L1-Fc | 30.25 ± 0.24 µM
O=c1c2ccccc2on1-c1ccccc1 | Histone deacetylase 7 (HDAC7, Homo sapiens, UniProt Q8WUI4) | enzyme activity, inhibitor |  |  | > 10 µM
Fc1cc2scnc2cc1Nc1ncnc2sc(C3=CCCNC3)cc12 | RIPK2 | enzyme activity, inhibitor |  |  | 0.009 µM
COc1cc([C@@H]2c3cc4c(cc3C=C(C=O)[C@H]2C(=O)N2CCCC2)OCO4)cc(OC)c1OC | tubulin alpha/beta (Leishmania infantum, UniProt A0A381MCS3+A4HTR0) | tubulin polymerization, inhibitor |  | 37 °C | > 20 µM
O=C(CS(=O)(=O)Cc1ccco1)C12CC3CC(CC(C3)C1)C2 | 11-beta-hydroxysteroid dehydrogenase 1 (Hsd11b1, Mus musculus, UniProt P50172) | enzyme activity in cells, inhibitor |  |  | 0.176 µM
O=c1ccc2ccc(O[C@@H]3O[C@H](CO)[C@@H](O)[C@H](O)[C@H]3O)cc2o1 | Tyrosine-protein phosphatase non-receptor type 1 (PTPN1, Homo sapiens, UniProt P18031) | enzyme activity, inhibitor, absorbance |  |  | > 100 µM
CNC1C[S+]2CC[S+]3CC[S+](C1)[Ru-4]321([N]=C=S)[n]2c3ccc(OC)cc3c3c4c(c5cc(F)c[n+]1c5c32)C(=O)NC4=O (stereo not drawn) | Ribosomal protein S6 kinase beta-2 (RPS6KB2, Homo sapiens, UniProt Q9UBS0) | kinase activity, inhibitor |  | with: ATP 100 µM | 0.975 µM

For quick reference, copied from above:
Compound | target | assay | system | setting | IC50
N#Cc1cnc2sc(C(=O)O)cc2c1N1CCc2[nH]nc(C(=O)N[C@@H](CC(=O)NCCOCCN3CCOCC3)c3cccc(Br)c3)c2C1 | Interleukin-1 receptor-like 2 (IL1RL2, Homo sapiens, UniProt Q9HB29) | antagonist, SEAP reporter | HEK-Blue IL-36R | 6 h, with: 0.003 ng/mL IL-36β | > 100 µM
CC1(C)CC(=O)C=C(Sc2nc3cc(Cl)ccc3s2)C1 | Lysine-specific demethylase 4A (KDM4A, Homo sapiens, UniProt O75164) | ligand displacement, FP |  |  | > 200 µM
CC(C)NC(=O)NC1CC=C(c2cc3c(Nc4cc5ncsc5cc4F)ncnc3s2)CC1 (racemic) | RIPK2 | enzyme activity, inhibitor |  |  | 0.011 µM
